Measured values pooled from the literature.
Compare with care: the assays were run in different laboratories.

Structure (SMILES) | organism | assay | system | setting | MIC
O=C1C(=C(O)NC2CCCCC2)C(=O)C2(C(=O)OCc3ccc(Br)cc3)CSC(c3ccccc3)N12 (stereo not drawn) | Streptomyces | bacterial growth, broth dilution | Mueller-Hinton broth | 24 h, 35 °C | 125 µg/mL
Cc1c(CN(C)C(=O)/C=C/c2cnc3c(c2)CC(N)C(=O)N3)oc2ccccc12 (stereo not drawn) | Klebsiella pneumoniae | broth microdilution | AR-0034 |  | 8 µg/mL
O=C1C(=C(O)NC23CC4CC(CC(C4)C2)C3)C(=O)C2(C(=O)OCc3ccc([N+](=O)[O-])cc3)CSC(c3ccccn3)N12 (stereo not drawn) | Streptomyces | bacterial growth, broth dilution | Mueller-Hinton broth | 24 h, 35 °C | 15.6 µg/mL
CC1(C)C(NC(=O)C(=NOC2(C(=O)O)CC2)c2csc(N)n2)C(=O)N1OS(=O)(=O)O (stereo not drawn) | Citrobacter freundii | agar dilution | ATCC 43864, susceptible |  | 0.125 µg/mL
C=CCOC(=O)[C@]12CS[C@H](c3ccccc3)N1C(=O)/C(=C(O)/C=C/c1ccccc1)C2=O | Streptomyces | bacterial growth, broth dilution | Mueller-Hinton broth | 24 h, 35 °C | 7.81 µg/mL
COc1cc(C(=O)Nc2ccc(C(=O)O)c(O)c2OC)ccc1NC(=O)c1ccc(NC(=O)[C@H](Cc2c[nH]nn2)NC(=O)c2ccc(NC(=O)/C(C)=C/c3ccc(O)cc3)cc2)cc1 | Mycolicibacterium phlei |  | DSM 750 |  | 2 µg/mL
C=CCO/N=C(\C(=O)N[C@@H]1C(=O)N(OS(=O)(=O)O)C1(C)C)c1nsc(N)n1 | Citrobacter freundii | agar dilution | ATCC 43864, susceptible |  | 0.5 µg/mL
N=C(N)NCCC[C@@H]1NC(=O)[C@H](CCCNC(=N)N)NC(=O)[C@@H](CCCNC(=N)N)NC(=O)[C@@H](CCCNC(=N)N)NC(=O)[C@@H](C(c2ccccc2)c2ccccc2)NC(=O)[C@@H](Cc2c[nH]c3ccccc23)NC(=O)[C@@H](C(c2ccccc2)c2ccccc2)NC1=O | Candida albicans |  | SC5314 |  | 32 µg/mL
CC(C)OC(=O)[C@]12CS[C@H](c3ccccc3)N1C(=O)/C(=C(O)/C=C/c1ccccc1)C2=O | Streptomyces | bacterial growth, broth dilution | Mueller-Hinton broth | 24 h, 35 °C | 7.81 µg/mL
C=CCO/N=C(\C(=O)N[C@@H]1C(=O)N(OS(=O)(=O)O)C1(C)C)c1csc(N)n1 | Citrobacter freundii | agar dilution | ATCC 43864, susceptible |  | 0.5 µg/mL
C=CCOC(=O)C12CSC(c3ccccc3)N1C(=O)C(=C(O)NC1CCCCC1)C2=O (stereo not drawn) | Streptomyces | bacterial growth, broth dilution | Mueller-Hinton broth | 24 h, 35 °C | 15.6 µg/mL
CNC(C)C1CCC(N)C(OC2C(N)CC(N)C(OC3OCC(C)(O)C(NC)C3O)C2O)O1 (stereo not drawn) | Salmonella enterica serovar Typhimurium |  | 7731, Mueller-Hinton broth | 18 to 20 h, 37 °C | 1 µM
CC1(C)[C@H](NC(=O)/C(=N\OC2(C(=O)O)CC2)c2nsc(N)n2)C(=O)N1OS(=O)(=O)O | Providencia rettgeri | agar dilution | ATCC 31052, susceptible |  | ≤ 0.03 µg/mL
CN[C@H](CC(C)C)C(=O)N[C@H]1C(=O)N[C@@H](CC(N)=O)C(=O)N[C@H]2C(=O)N[C@H]3C(=O)N[C@H](C(=O)N[C@H](C(=O)O)c4cc(O)cc(O)c4-c4cc3ccc4O)[C@H](O)c3ccc(c(Cl)c3)Oc3cc2cc(c3O[C@@H]2O[C@H](CO)[C@@H](O)[C@H](O)[C@H]2O[C@H]2C[C@](C)(N)[C@H](O)[C@H](C)O2)Oc2ccc(cc2Cl)[C@H]1O | Salmonella enterica serovar Typhimurium |  | 7731, Mueller-Hinton broth | 18 to 20 h, 37 °C | 32 µM
CC1(C)[C@H](NC(=O)/C(=N\OCCN)c2nsc(N)n2)C(=O)N1OS(=O)(=O)O | Citrobacter freundii | agar dilution | ATCC 43864, susceptible |  | 8 µg/mL
O=C1/C(=C(O)/C=C/c2ccccc2)C(=O)[C@@]2(C(=O)OC3CCCCC3)CS[C@H](c3ccccc3)N12 | Streptomyces | bacterial growth, broth dilution | Mueller-Hinton broth | 24 h, 35 °C | 1.95 µg/mL
CC1(C)[C@H](NC(=O)/C(=N\OCC(=O)N2CCC[C@@H]2C(=O)O)c2nsc(N)n2)C(=O)N1OS(=O)(=O)O | Providencia rettgeri | agar dilution | ATCC 31052, susceptible |  | 0.06 µg/mL
CC1C=CC=CC(C)C2C=CC3CC(C)(O)C(Cl)C(C)C3C2C(=O)C(Cl)(Cl)C(=O)C(C)C(=O)O1 (stereo not drawn) | Staphylococcus aureus |  | MRSA clinical isolate | resistant: OXA,DOX,TET | 0.1 µg/mL

Some of these lines once more:
Structure (SMILES) | organism | assay | system | setting | MIC
O=C1C(=C(O)NC2CCCCC2)C(=O)C2(C(=O)OCc3ccc(Br)cc3)CSC(c3ccccc3)N12 (stereo not drawn) | Streptomyces | bacterial growth, broth dilution | Mueller-Hinton broth | 24 h, 35 °C | 125 µg/mL
